Measurements gathered from unrelated publications.
Each line is one published result; not all experiments were run side by side. ± gives the spread as reported.

CN[C@@H]1[C@@H](O)[C@@H](O[C@@H]2[C@@H](O)[C@H](O[C@H]3O[C@H]([C@@H](C)O)[C@@H](O)[C@H](O)[C@H]3N)[C@@H](N)C[C@H]2N)OC[C@]1(C)O — IC50 (luciferase synthesis, inhibitor, coupled transcription-translation; M. smegmatis 70S ribosomes, Leishmania/Trypanosoma hybrid; 60 min, 37 °C): 0.02 µM
O=c1c2ccccc2[nH]c2nc3nc(-c4ccccc4)cc(-c4ccc5ccccc5n4)c3c(=O)n12 — IC50 (DPPH scavenging, absorbance; 30 min): 127 µM
c1ccc2c(c1)cc1ccc3cccc4ccc2c1c34 — minimal protective dose (adrenal haemorrhage prevention; rat; oral, together with: 7,12-DMBA 5 mg i.v.): 0.5 mg
C[C@]12N3Cc4c(c(OCCCS(=O)(=O)[O-])c5ccccc5c4OCCCS(=O)(=O)[O-])CN1C(=O)N1CN4C(=O)N5CN6C(=O)N7CN8C(=O)N9Cc%10c(c(OCCCS(=O)(=O)[O-])c%11ccccc%11c%10OCCCS(=O)(=O)[O-])CN%10C(=O)N(CN%11C(=O)N(CN%12C(=O)N(CN(C3=O)[C@]12C)[C@@H]4[C@H]%125)[C@@H]6[C@H]%117)[C@]8(C)[C@@]9%10C.[Na+].[Na+].[Na+].[Na+] — time to recovery of righting reflex (Sprague-Dawley rat; intravenous, 80 mg/kg/min from 3 min, together with: propofol i.v. bolus): 13 ± 1.3 min
CCCCCC(O)C=CC=O (stereo not drawn) — IC50 ([3H]dopamine uptake, inhibitor; rat striatal synaptosomes; 15 min, 30 °C): 441 µM
atrial natriuretic peptide — fractional shortening (rat high-fat streptozotocin diabetes; subcutaneous pump, 2 pmol/kg/min, 6 weeks, together with: sacubitril 18 mg/kg/day oral): ~50%
acyline — serum testosterone (human men; sc, 300 µg/kg, 24 h): 46 ± 10 ng/dL
COc1ccc(/C=C\c2cc(OC)c(OC)c(OC)c2)cc1O — IC50 (tubulin polymerisation, inhibitor, absorbance; 20 min): 0.54 µM
CC[C@H](C)[C@H](NC(=O)CNC(=O)[C@H](Cc1c[nH]c2ccccc12)NC(=O)CNC(C)=O)C(=O)N[C@@H](CCCCN)C(N)=O — transition enthalpy (DSC; SOPC/cholesterol 7/3 bilayers; 15 mol%, pH 7.40): 0.7 kcal/mol
CC#CCn1c(N2CCC[C@@H](N)C2)nc2c1c(=O)n(Cc1nc(C)c3ccccc3n1)c(=O)n2C — glucose AUC (oral glucose tolerance test; HFD/STZ type 2 diabetic rat; oral, 10 mg/kg, together with: glucose 1 g/kg): 498 ± 55.1 mg·min/dL
C=C[C@H]1[C@H]2CCC[C@]1(c1cccc(C(N)=O)c1)CCN2CCc1ccccc1 — duration of antinociception (pain-depressed locomotion; mice; subcutaneous, 18 mg/kg, together with: intraperitoneal lactic acid): 60 min
CC(=O)N[C@@H](CC(C)C)C(=O)N1CCC[C@H]1C(=O)N[C@@H](Cc1ccc(O)cc1)C(=O)N1CCC[C@H]1C(=O)N[C@@H](CCCCN)C(N)=O — transition enthalpy (DSC; SOPC/cholesterol 7/3 bilayers; 5 mol%, pH 7.40): 0.4 kcal/mol
CCCC(C(N)=O)C(C)CC (stereo not drawn) — compound action potential area (rat sciatic nerve; 1 or 3 mM, together with: stimulation 0.2 Hz; reference: baseline): no effect
CC1=C(C(=O)Nc2ccc(F)cc2)C(c2ccccc2C#N)NC(=S)N1 (stereo not drawn) — mean arterial pressure (carotid artery cannulation; male Wistar rats, anaesthetised; 0.3 mL, 3 h): 22.4 ± 0.96 mm Hg
Cc1ccc([C@]2(O)OCC(C)(C)N[C@H]2C)cc1 — ED50 (nicotine antinociception blockade, antagonist, tail-flick test; mouse; 15 min pretreatment, together with: nicotine 2.5 mg/kg subcutaneous): 4 µg/kg

A few entries again:
acyline — serum testosterone (human men; sc, 300 µg/kg, 24 h): 46 ± 10 ng/dL
